Published values pooled from the literature.
Every numbered part comes from another study and shows a few of its results, in no order.

Block 1
Target: Interferon regulatory factor 7, full length, phosphomimetic (IRF7, Homo sapiens, UniProt Q92985, residues 1-503, S101K/S471D/S472D/S475D/S476D/S477D/S483D/S484D/S487D)
UniProt Q92985, sequence (whole entry, unmodified, looked up): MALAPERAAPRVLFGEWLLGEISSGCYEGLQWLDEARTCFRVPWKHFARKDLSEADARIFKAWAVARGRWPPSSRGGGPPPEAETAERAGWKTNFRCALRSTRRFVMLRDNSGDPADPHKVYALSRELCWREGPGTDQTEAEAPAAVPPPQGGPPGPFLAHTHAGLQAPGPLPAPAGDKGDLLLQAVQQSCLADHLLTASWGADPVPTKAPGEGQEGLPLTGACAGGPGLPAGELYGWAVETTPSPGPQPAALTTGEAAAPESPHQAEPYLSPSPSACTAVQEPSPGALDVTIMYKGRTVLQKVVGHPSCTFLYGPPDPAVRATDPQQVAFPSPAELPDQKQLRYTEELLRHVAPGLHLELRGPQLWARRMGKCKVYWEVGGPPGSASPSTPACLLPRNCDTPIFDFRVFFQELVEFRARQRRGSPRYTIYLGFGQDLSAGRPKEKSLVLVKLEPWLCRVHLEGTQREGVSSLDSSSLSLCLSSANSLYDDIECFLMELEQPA
Technique: protein-binding microarray
Molecule type: double-stranded DNA, one strand shown
Medium: in vitro
Concentration: 250 nM
Setting: 60-bp whole probe
Added: salmon DNA 0.4 mg/ml
Relative to: random background probes
Direction: higher = stronger binding
Measurement: log fluorescence
Shared flanks, not repeated: GCCTAGCAC … GTCTTGATTCGCTTGACGCTGCTG
TTAGATATCAGACCGGATTAGTGCTAG: 0.313 z-score
GACGGACTGGGTTTCGGGACGTGCTAG: 1.66 z-score
ATTTTGAGGTGGAGAGATAAGTGCTAG: 0.202 z-score
TTAAGACTGGACTATCGGTTAGTGCTA: -0.209 z-score
TTAGGTATCGGGTTTCGTTTAGTGCTA: 7.69 z-score
GTCGGTTTCGGGTTTCGGGACGTGCTA: 12.3 z-score
TCATCCTTTACTTTCTTACTGTGCTAG: 1.3 z-score
GACGGTTTCGACTTTCGAGACGTGCTA: 11.1 z-score
CACTTTCTTTAACTCATTCTGTGCTAG: 2.06 z-score
TAAGGTCTCCTTCTCCTTTAGTGCTAG: 0.445 z-score
GGTCTTCTGGGCTGTTTGGTCGTGCTA: -0.903 z-score
GAGGGTATCGGGTTTCGGGACGTGCTA: 2.72 z-score
GGGAGTGTCAATAATGACCACGTGCTA: -0.552 z-score
TGAGAACTGAGTTTCGATTAGTGCTAG: 7.63 z-score
TTAGGTTTCGACACTGGTTTAGTGCTA: 3.89 z-score
GTAGGACTGGGTCTCGGTTAGTGCTAG: 0.736 z-score
TTAGGACTGCTACTGATTTAGTGCTAG: -0.581 z-score
GACGAACTGGGGTATCGATACGTGCTA: -0.265 z-score
TCAATATTCATTTTATTACTGTGCTAG: 1.34 z-score
ACAGCTCTGCGGTTCAGATAGTGCTAG: -0.592 z-score
TTAGGTATTGGTTTCGGTTAGTGCTAG: 9.24 z-score
GAAGCTTCCTCTCTGCCACTGTGCTAG: 0.0452 z-score
TTAGGTTTACTACTGCTTTAGTGCTAG: -0.31 z-score
GACCGACTGGGGACTGGGGACGTGCTA: 0.025 z-score
TCATTTTTTTTCCTAATACTGTGCTAG: 1.5 z-score

Block 2
Target: Ras GTPase-activating protein-binding protein 1, full length (G3BP1, Homo sapiens, UniProt Q13283)
UniProt Q13283, sequence (whole entry, looked up): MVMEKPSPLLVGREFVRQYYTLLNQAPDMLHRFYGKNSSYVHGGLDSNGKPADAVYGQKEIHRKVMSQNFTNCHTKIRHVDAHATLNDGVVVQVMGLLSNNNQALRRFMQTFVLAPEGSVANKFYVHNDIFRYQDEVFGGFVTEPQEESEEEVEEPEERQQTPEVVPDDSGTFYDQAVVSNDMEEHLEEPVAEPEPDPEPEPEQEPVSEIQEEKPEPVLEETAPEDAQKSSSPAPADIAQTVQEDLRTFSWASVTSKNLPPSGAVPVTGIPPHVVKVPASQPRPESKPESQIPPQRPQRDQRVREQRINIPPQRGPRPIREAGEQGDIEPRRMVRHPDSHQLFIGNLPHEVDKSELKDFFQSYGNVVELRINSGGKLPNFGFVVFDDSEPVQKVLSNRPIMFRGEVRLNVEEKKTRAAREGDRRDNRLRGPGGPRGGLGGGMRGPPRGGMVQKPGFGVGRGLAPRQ
Technique: RNA Bind-n-Seq
Molecule type: RNA
Medium: in vitro
Concentration: 200 nM
Setting: whole 134-nt RNA, ends assumed
Added: 150 mM KCl
Relative to: input library
Direction: higher = stronger binding
Measurement: log2 enrichment
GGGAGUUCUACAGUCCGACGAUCUCCUGUGCUACACAUCGUAUGUACCGAAUCGGGGAAAAAAGGGGAAAAAAGGAAAAAAGGAAAGUAUUAUGUUACGCCGUUCGGAUCUGCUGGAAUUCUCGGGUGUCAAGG: -0.253
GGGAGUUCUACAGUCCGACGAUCGCAGGAAGUAAAAACAAAUGGAGAUGCUUCGGAUAGUGGCAGGGGUGGGGGUUGCUAAGGAAAGGGUGGGAUGGGAGUGGGUAAAGAGUUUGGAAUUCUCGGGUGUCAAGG: 1.25
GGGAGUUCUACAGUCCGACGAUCUUGUCUUCUGAGAUGUUGGGCCCCUCUUGGGAUGGAGAUGAAGCAGAAUCCACUGGUGAAAUCAUUAGACUUGGAGACACAGCACACACCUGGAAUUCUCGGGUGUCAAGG: 0.352
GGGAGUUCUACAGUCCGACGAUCCCUGUGCUACACAUCGUAUGUACCGAAUCAAACCCCCCCAAAUUUUUUUAAAUUUUUAAAAAAGUAUUAUGUUACGCCGUUCGGAUCUGCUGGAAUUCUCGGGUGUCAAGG: 0.239
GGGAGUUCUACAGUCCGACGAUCGUCCUGUGCUACACAUCGUAUGUACCGAAUCGGGGUUUUUGGUUUUUGGGUUUUUGGGAAAGUAUUAUGUUACGCCGUUCGGAUCUGCACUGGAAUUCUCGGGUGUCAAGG: -0.768
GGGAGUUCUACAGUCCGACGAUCUCCUGUGCUACACAUCGUAUGUACCGAAUCGGGGUUUUUGGGUUUUUGGGUUUUUGGGGAAAGUAUUAUGUUACGCCGUUCGGAUCUGCAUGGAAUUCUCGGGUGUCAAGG: 0.114
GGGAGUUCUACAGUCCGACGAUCCUCCAGAAAGCAGUGGGGCCUGAGAUCACCAAGACAGACCUGGUCCCUGCCUUCCAGAACCUGAUGAAAGACUGUGAGGCCGAGGUGAGGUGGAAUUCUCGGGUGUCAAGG: 0.0205
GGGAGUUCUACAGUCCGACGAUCACCAUGCAGGUGGGCAUCUUUGGGAAGUGGGGCAAGGGGGGGAUAGGGAGGGGGGUAACACUUUGGGAACAGGUGGUCCCAGGUCGUUCCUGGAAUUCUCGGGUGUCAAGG: 1.12
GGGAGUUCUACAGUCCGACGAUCGUCCUGUGCUACACAUCGUAUGUACCGAAUCGGGUUUGGGUUUUUUUGGGUUUUUGGGAAAGUAUUAUGUUACGCCGUUCGGAUCUGCACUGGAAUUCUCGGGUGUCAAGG: -0.116
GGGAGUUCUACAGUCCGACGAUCCGGGAGGUGGAUUUUGUUUAUUUUUUUAGCUCAUUUCCAGGGGUGGGAAUUUUUUUUUAAUAUGUGUCAUGAAUAAAGUUGUUUUUGAAAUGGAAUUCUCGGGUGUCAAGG: 0.186
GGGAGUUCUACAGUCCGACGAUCGUCCUGUGCUACACAUCGUAUGUACCGAAUCGGGGCCCCCGGCCCCCGGGCCCCCGGGAAAGUAUUAUGUUACGCCGUUCGGAUCUGCACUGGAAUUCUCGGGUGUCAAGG: -0.748
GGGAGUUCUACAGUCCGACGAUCCCUGUGCUACACAUCGUAUGUACCGAAUCGGGCCCCCCGGCCCCCCGGGGCCCCCCGGGGAAAGUAUUAUGUUACGCCGUUCGGAUCUGCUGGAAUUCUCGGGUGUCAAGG: -0.411
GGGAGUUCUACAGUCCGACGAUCACCAUGCAGGUGGGCAUCUUUGGGAAGUGGGGCAAGGGGGGGAUAGGGAGGGGGGUAACACUUUGGGAACAGGUGGUCAAAGGUCGUUUCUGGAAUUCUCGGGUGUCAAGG: 1.29
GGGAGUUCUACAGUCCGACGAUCGUCCUGUGCUACACAUCGUAUGUACCGAAUCGGGUUUUUGGGUUUUUGGGUUUUUGGGGAAAGUAUUAUGUUACGCCGUUCGGAUCUGCAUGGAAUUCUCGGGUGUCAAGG: -0.147

Block 3
Target: Histone acetyltransferase KAT6A, winged helix 2, GST fusion (KAT6A, Homo sapiens, UniProt Q92794, residues 85-181)
Technique: protein binding microarray
Molecule type: double-stranded DNA, one strand shown
Medium: in vitro
Concentration: not given
Setting: 8-mer, flanks averaged, mean of 2 arrays, mostly near background
Relative to: not given
Direction: higher = stronger binding
Measurement: E-score
Construct (chain): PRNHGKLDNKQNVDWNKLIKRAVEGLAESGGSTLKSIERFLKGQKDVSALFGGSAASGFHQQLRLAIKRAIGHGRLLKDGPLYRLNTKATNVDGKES
AGCTATCC: -0.203
GCGATAGA: 0.0575
CTTAGGAC: -0.11
CCCCACTA: -0.22
CGGCAGAA: 0.228
CCCCTTCC: 0.0527
ACATATTG: -0.0252
CCTACGGA: -0.0108
ATGTCAGG: -0.17
CCGTCTTC: 0.0222
AAGTCAAC: -0.0161
CCACCTTA: 0.0779
ACCCCTAT: -0.208
CTGTGATC: -0.136
GCCCAGAA: 0.0349
GACTCATA: -0.0626
ATGATATA: -0.0251
AACACTTG: -0.127
AAGAGAGG: 0.0894
AAACTTGG: -0.0725

Block 4
Target: RNA binding protein fox-1 homolog 2, RRM domain, GST-SBP tag (RBFOX2, Homo sapiens, UniProt O43251-10, residues 100-194)
Technique: RNA Bind-n-Seq
Molecule type: RNA
Medium: in vitro
Concentration: 365 nM
Setting: natural RNA segment, single round, ends assumed
Relative to: no-protein control
Direction: higher = stronger binding
Measurement: RBNS enrichment (R)
Target sequence (chain): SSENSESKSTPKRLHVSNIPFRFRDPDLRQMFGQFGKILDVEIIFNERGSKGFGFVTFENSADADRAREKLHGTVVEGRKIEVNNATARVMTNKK
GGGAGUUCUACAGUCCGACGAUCCACCCUGACUAUGGGACGGAAAUCAGUGCUGCAUCUUCAUGGGCUGCUCUGCUCGGAGAUGGGGCCCGAGGGGCCCGUUUUGUUCAGAAAUAUAUUUUAAAUGUUUAGUAUGGAAUUCUCGGGUGCCAA: 0.393
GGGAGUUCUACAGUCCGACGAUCUUAGGCCACUGUGCUUUGCGGUCCAUUAGUAAACUUGUGUUGCUAAGUGCUAAACAGAAUACUGCUAUUUUGAGAGAGUCAAGACUCUUUCUUAAGGGCCAAGAAAGCAAUGGAAUUCUCGGGUGCCAA: 0.209
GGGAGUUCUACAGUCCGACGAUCCCCGAGCUGUGGGCCACCCUGGGGGCGCUGUCGCUGCUGUUUCCCUGCCCGAGAAUCAGCUUGAAUUCCCACUUCUGCUUGUUGGCCCCAGCUCUGGCUUUGCAUCCUUAUGGAAUUCUCGGGUGCCAA: 2.81
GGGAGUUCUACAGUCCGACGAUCUCCUACCACUUAUUACAACAGUGAGGACUGGAUUCUUGAUGUCUUAAUUUCUCAUUUAUUUGUCUAGAAAAUCCAUAAUGAUAUAGGACAUUUAUACCGAGUGAGAUCAUUGGAAUUCUCGGGUGCCAA: 0.376
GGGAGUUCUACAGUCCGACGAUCAUAACCAAGAACCUUCAGGAUGCUUGUAACCAAGUACUUUCAGGAUGCUUUUUGUAUGUAUAUCACAUAGAGUAGGUUGGUUUCCUGAGUAAUUGGGAUUCCAACUAGAUUGGAAUUCUCGGGUGCCAA: 0.294
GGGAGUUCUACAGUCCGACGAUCAGCUGGGCCCAGCCCCUCCACGUGAUUUCCAGUGAGUGUAAAUAAUUUUAAAUAACCUCUGGCCCUUGGAAUAAAGUUCUGUUUUCUGUAUUUGCCUGGUAUUGUGUGAGUGGAAUUCUCGGGUGCCAA: 0.842
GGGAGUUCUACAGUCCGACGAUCUGCUUUGCCUUCACCACCGCUAGUCUGUUUGGAAGGCUUGAGGUGGGGUGUCUUGGGAAAUUAGGGCCACUACCCAAGAUUUGAAUUUAGGGAGUGGGAGCAGCCUCAGCUGGAAUUCUCGGGUGCCAA: 0.532
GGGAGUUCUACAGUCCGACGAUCAUGCCAUGCUGGGGUGACAUUUUAGAGACUGACCGAAAUAGGUGAGACCCUGCCUGUAUUCAGAAAUGUGGAACAGAGAAAUGGUGGGCCAGGAGUGAAGGCAGAUUUAGUGGAAUUCUCGGGUGCCAA: 1.05
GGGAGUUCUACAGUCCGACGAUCGAAGCGAUGUGUGUGCGGUUCAGGAAACUCCUCCAAGAGGAGGAGGAGUCCAAACAGGGAUGCCAGAGGAAGCUUUCCGUUUUCCUAGCCAACUUGUGUUCUGGGUUUGAUGGAAUUCUCGGGUGCCAA: 0.474
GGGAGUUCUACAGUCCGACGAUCGCCAUUAAUUUUUGGGUUUUUUUAAAAUCCAGAAGGUAUAUAGAAACCUUUUCAGAUUUUUCAUCUGAUUUGUUCUUGCAGAUGUUCUUCUAUCAAAUACCUUAUUUUACUGGAAUUCUCGGGUGCCAA: 0.726
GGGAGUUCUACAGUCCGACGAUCCUCCACGUGGCCCACAGGCCUGACCACAGGGGCUGUGGGUCCUGCGUCCCCUUCCUCGGGUGAGCCUGGCCUGUCCCGUUCAGCCGUUGGGCCCAGGCUUCCUCCCCUCCUGGAAUUCUCGGGUGCCAA: 0.261
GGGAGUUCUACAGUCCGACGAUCGACAUGUUGCAGAAGACCAGAUCAUUUUUAUACAGAAUGUGAAAUACUGAUACAGUUAUUCUUUUUUUUAAAGAACAUUGUUUUAUAAAGAACGUGAUUUCCAGUGAUCUUGGAAUUCUCGGGUGCCAA: 0.521

Some of these lines once more (block 1):
GGTCTTCTGGGCTGTTTGGTCGTGCTA: -0.903 z-score
GAGGGTATCGGGTTTCGGGACGTGCTA: 2.72 z-score
GGGAGTGTCAATAATGACCACGTGCTA: -0.552 z-score
TGAGAACTGAGTTTCGATTAGTGCTAG: 7.63 z-score
TTAGGTTTCGACACTGGTTTAGTGCTA: 3.89 z-score
GTAGGACTGGGTCTCGGTTAGTGCTAG: 0.736 z-score
TTAGGACTGCTACTGATTTAGTGCTAG: -0.581 z-score
GACGAACTGGGGTATCGATACGTGCTA: -0.265 z-score
TCAATATTCATTTTATTACTGTGCTAG: 1.34 z-score
